Results of several laboratories.
Numbered parts are unrelated; each lists some results of a single study.

Series 1
Target: Max-binding protein MNT, bHLH-zipper, MAX partner unstated (MNT, Homo sapiens, UniProt Q99583, residues 220-300)
Method: protein-binding microarray
Form: double-stranded DNA, one strand shown
Matrix: in vitro
Concentration: not given
Setting: k-mer, scored over probes, only values ≥0.25
Direction: higher = stronger binding
Endpoint: E-score
Residues (chain): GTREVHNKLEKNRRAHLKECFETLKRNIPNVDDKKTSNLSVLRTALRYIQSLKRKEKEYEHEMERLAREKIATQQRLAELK
CACGCACA: 0.378
ACGAGGAG: 0.297
ACGTGCCT: 0.407
CCGCCACC: 0.283
CACCACGC: 0.429
CGTGTGTC: 0.349
GCGTGCGA: 0.391

Series 2
Target: Sal-like protein 4, full length isoform A (SALL4, Homo sapiens, UniProt Q9UJQ4, residues 1-1053)
Sequence of UniProt Q9UJQ4 (whole entry, looked up): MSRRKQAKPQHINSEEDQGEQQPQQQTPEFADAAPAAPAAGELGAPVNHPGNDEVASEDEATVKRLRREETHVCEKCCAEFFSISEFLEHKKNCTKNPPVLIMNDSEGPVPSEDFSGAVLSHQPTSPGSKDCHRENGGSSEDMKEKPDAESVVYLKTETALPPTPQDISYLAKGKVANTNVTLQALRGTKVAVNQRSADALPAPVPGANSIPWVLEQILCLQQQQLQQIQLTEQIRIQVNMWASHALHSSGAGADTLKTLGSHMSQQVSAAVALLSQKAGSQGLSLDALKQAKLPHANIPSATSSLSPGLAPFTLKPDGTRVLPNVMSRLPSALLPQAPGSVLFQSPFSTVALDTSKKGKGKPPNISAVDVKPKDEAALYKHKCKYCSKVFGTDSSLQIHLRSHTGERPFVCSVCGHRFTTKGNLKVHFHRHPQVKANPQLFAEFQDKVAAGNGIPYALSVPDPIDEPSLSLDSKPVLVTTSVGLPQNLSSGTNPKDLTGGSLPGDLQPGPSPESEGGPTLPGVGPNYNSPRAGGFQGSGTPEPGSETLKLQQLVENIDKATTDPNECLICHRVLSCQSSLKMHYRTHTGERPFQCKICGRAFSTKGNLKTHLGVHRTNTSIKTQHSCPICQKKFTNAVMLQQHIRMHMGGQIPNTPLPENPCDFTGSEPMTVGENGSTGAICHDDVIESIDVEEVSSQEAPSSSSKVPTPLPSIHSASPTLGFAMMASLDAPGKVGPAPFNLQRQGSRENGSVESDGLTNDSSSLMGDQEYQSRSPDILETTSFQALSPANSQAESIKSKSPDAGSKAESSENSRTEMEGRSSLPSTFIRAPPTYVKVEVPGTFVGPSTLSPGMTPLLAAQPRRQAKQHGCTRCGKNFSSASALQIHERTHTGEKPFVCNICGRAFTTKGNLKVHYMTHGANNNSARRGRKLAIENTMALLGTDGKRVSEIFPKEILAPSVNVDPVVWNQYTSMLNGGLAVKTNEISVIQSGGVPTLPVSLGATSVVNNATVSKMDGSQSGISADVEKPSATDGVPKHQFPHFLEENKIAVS
Method: universal PBM
Form: double-stranded DNA, one strand shown
Matrix: in vitro
Concentration: 600 nM
Setting: 8-mer, flanks averaged, mean of replicates
Direction: higher = stronger binding
Endpoint: E-score
CAGCGCCA: -0.274
GCGTAACA: 0.0578
TATACGCA: 0.161
ACTATCCC: -0.109
AACACGCA: 0.104
AAGTGCTG: -0.032
ATCTAGCC: -0.158
GGCTTGGA: -0.208

Series 3
Target: Centromere-binding protein 1, full length, His-tagged (CBF1, Saccharomyces cerevisiae, UniProt P17106, residues 1-351)
Sequence of UniProt P17106 (whole entry, looked up): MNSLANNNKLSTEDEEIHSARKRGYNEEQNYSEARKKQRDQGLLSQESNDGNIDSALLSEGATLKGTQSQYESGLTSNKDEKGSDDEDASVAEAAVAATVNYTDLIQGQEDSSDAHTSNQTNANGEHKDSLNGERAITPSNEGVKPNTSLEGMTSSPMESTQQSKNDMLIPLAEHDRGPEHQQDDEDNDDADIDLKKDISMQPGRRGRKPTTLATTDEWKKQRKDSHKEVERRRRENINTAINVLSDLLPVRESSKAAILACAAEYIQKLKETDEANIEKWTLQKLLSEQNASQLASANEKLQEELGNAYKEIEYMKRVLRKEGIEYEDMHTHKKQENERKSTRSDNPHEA
Method: competition protein-binding microarray
Form: double-stranded DNA, one strand shown
Matrix: in vitro
Concentration: 2 µM
Setting: whole 60-bp probe, lowest competitor level
Together with: Pho4 competitor, 0.05 µM
Direction: higher = stronger binding
Endpoint: fluorescence intensity
CTTCTGTAAATTTGTCACGGAACTTGACGCGCCCCGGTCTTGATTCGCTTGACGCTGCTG: 83.4 a.u.
AAAGCGGTAATTTGACTAGTGGGTGCAGATATCTATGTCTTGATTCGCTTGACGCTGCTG: 75 a.u.
GAAATTTTAACGCAGAACGTGCCGAAGAAAAAAAAAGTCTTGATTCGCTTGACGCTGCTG: 217 a.u.
TATCACTCTTGATCGCATGTGCCGTTTCCGAGAACGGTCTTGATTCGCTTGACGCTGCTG: 105 a.u.
AGAAATGCCATTTTGCACGTGACGAAACAAATTGTGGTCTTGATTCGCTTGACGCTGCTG: 6740 a.u.
TTTTTCGATTTTGTTTTTGTGTCGCAAAATAACTAAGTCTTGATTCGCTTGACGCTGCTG: 93.2 a.u.
CTTTCCCGATCTTGGCCCGTGGGTGTAGCACATTTGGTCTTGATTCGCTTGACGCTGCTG: 67.7 a.u.
CTATTTTTATGAATTCCGCGGGATTCCTCTATATCTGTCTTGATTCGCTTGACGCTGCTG: 77.2 a.u.
GCCTGGGTGGCGGGCTATGTGGTGAATGCAGAGGGTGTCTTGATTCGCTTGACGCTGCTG: 71.4 a.u.

Other studies, line by line
PhoQ, residues 284 288 289 292 302 303 NLALSC — fold induction (PhoP, residues 12 14 15 18 19 LQHIR (Escherichia coli, UniProt P23836); Sort-seq, refers to: YFP reporter; E. coli; PhoQ-PhoP variant library, together with: 10 µM Mg2+; baseline: high Mg2+ state, higher = stronger signaling): 2.77

Some of these lines once more (series 2):
CAGCGCCA: -0.274
AACACGCA: 0.104
GCGTAACA: 0.0578
